Literature values, collected from citations in different studies.
Numbers after ± are the reported error.
Tpm1 K15N: Tropomyosin alpha-1 chain (Tpm1, Rattus norvegicus, UniProt P04692, K15N)
Chain of UniProt P04692 (whole entry, unmodified, looked up): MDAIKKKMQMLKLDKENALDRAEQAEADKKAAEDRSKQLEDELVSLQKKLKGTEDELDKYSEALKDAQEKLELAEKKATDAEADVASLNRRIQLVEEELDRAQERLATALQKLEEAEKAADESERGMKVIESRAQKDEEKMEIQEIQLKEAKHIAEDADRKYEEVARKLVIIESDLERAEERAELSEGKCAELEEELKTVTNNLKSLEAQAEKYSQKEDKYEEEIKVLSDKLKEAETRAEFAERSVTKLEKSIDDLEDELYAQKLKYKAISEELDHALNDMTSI
B1: CCL1; sequence looked up; chain KSMQVPFSRCCFSFAEQEIPLRAILCYRNTSSICSNEGLIFKLKRGKEACALDTVGWVQRHRKMLRHCPSKRK
Chain of UniProt Q9ULZ3 (whole entry, looked up): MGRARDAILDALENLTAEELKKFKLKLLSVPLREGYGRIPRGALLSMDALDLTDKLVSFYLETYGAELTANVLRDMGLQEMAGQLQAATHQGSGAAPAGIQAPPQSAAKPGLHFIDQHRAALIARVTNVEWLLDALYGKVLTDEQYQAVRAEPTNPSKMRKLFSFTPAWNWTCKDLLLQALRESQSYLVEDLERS
Chain of UniProt P45481 (whole entry, looked up): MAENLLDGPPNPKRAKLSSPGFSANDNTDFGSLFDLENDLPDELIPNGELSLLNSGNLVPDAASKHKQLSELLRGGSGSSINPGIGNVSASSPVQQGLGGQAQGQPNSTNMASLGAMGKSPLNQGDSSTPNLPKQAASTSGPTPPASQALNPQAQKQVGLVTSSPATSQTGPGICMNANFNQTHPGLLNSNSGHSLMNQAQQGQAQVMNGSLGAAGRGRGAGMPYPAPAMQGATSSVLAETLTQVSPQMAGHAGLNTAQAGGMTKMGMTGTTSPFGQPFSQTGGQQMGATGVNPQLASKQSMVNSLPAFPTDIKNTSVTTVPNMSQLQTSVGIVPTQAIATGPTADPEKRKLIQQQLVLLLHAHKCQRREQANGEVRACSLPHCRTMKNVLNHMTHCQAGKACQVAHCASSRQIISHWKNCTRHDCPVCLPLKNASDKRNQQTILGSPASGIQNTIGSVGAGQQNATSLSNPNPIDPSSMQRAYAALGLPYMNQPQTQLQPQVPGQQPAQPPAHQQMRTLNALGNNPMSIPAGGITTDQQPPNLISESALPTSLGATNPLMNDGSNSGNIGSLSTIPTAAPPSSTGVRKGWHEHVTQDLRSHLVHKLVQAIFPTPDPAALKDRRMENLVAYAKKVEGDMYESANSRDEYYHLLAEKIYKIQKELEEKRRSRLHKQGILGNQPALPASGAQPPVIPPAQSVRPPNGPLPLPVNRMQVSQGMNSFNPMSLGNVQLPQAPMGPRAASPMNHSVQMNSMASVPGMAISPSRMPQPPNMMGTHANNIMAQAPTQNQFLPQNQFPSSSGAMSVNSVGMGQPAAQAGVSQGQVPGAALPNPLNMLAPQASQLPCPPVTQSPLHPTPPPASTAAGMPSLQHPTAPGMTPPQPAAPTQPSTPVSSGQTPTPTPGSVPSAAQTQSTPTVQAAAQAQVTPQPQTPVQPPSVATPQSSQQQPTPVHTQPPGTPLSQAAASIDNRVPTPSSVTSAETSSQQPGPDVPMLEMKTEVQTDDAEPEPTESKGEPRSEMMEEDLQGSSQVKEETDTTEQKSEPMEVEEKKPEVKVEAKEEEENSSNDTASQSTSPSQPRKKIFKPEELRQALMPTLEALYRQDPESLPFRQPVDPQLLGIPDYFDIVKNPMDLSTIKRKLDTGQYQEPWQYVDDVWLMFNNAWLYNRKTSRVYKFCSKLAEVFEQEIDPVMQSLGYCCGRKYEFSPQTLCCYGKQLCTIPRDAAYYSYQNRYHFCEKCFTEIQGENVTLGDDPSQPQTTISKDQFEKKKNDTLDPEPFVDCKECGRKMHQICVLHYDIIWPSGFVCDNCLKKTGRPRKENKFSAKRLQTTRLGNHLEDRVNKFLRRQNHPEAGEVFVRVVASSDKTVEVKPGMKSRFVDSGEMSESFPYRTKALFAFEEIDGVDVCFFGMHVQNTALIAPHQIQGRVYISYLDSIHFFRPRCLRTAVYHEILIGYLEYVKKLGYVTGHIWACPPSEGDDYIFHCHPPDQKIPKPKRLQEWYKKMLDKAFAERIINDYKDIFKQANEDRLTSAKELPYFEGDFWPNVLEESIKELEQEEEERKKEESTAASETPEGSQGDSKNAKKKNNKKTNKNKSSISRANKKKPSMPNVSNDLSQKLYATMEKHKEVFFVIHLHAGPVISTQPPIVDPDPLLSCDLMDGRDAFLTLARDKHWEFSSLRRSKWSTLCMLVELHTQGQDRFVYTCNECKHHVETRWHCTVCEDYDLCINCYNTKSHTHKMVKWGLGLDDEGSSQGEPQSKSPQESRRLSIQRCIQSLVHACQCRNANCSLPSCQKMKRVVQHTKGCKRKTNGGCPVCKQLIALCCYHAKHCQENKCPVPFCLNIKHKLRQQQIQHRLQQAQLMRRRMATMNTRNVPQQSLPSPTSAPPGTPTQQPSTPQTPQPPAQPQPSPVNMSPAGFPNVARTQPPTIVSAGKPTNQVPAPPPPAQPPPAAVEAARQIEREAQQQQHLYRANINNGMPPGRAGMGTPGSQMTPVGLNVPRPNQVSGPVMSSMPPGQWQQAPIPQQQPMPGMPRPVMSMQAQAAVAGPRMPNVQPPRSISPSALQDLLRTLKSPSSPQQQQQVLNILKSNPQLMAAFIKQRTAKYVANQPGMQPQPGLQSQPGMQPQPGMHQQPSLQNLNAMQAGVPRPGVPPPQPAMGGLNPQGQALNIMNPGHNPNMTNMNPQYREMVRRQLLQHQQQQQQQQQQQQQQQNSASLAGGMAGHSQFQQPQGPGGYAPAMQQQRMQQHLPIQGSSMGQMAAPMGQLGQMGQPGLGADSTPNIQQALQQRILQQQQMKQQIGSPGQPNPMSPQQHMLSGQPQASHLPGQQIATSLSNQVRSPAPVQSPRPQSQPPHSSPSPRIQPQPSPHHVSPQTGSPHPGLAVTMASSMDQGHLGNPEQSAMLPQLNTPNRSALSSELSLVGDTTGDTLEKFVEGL

Substance = VAIA; target or system = PC-12; test = Aβ42-induced toxicity, inhibitor, LDH release; test system = peptide; setting = added: Aβ42; measurement = IC50; value = 14 ± 2 µM
Substance = ifinatamab deruxtecan; test system = patients with advanced solid tumours; setting = dose not given; measurement = partial response; value = 21%
Substance = dulaglutide; test system = human; setting = once weekly dosing; measurement = tmax; value = 24 to 72 h
Substance = STFGYRRGLSKYESIDEDELLASLSAEELKELERELEDIE (Lmod2(2-41); sequence looked up); target or system = Tpm1 K15N; test = CD thermal unfolding; test system = peptide; scale = complex; measurement = melting temperature; value = 28 ± 0.2 °C
Substance = GVLDILKGAAKDLAGHVATKVINKI; target or system = Acinetobacter baumannii; test system = peptide; measurement = MIC; value = > 512 µg/mL
Substance = HHLGGAKQAGDV; target or system = integrin αIIbβ3; test system = peptide; setting = concentration not given; measurement = bond half-life; value = ~0.02 s
Substance = VGGVVIA; target or system = PC-12, differentiated; test = MTT; test system = peptide; setting = 10-fold excess over Aβ42, added: Aβ42 5 µM; scale = reference: untreated; measurement = viability; value = 80 ± 3%
Substance = B1 (CCL1); target or system = CCR8 S289A mutant; test = IP accumulation, agonist; measurement = EC50; value = 0.018 µM
Substance = RWIKIWFQIRRWKWKK; target or system = Staphylococcus aureus; test system = peptide, methicillin-resistant; measurement = MIC; value = 23.4 µg/mL
Substance = teicoplanin; test system = human patients; setting = dose not given; measurement = volume of distribution steady-state; value = 1.04 L/kg
Substance = insulin (human); target or system = BBB cells; test = outcome: increased, item: LRP-1 and RAGE; setting = concentration not given; measurement = membrane level; value = increased
Substance = PYCARD PYD domain (Homo sapiens, UniProt Q9ULZ3); target or system = itself; test = NMR; measurement = Kd; value = 65 µM
Substance = MAIRIIGRLARVRARVVARVRSRLLADDPPEDLLRVARRKGRRWFLFLS; target or system = Escherichia coli; test system = peptide; measurement = MIC; value = 25 µM
Substance = LPLLR; target or system = Caco-2; test system = peptide; setting = concentration not given, up to, at high dose, added: H2O2; scale = reference: H2O2 alone; measurement = nuclear Nrf2 level; value = ≤ 2.87 fold
Substance = RWIKIWFQNRRWKWKK; target or system = Staphylococcus aureus; test system = peptide, methicillin-resistant; measurement = MIC; value = 62.5 µg/mL
Substance = pegcetacoplan; target or system = Complement C3 (Homo sapiens, UniProt P01024); test system = human subjects; setting = subcutaneous, 45 mg single dose, lowest dose; scale = reference: placebo; measurement = serum level increase; value = no effect
Substance = RWIKIWFQWRKIRWKK; target or system = Staphylococcus aureus; test system = peptide, methicillin-resistant; measurement = MIC; value = 46.9 µg/mL
Substance = MSYRKELEKYRDLDEDKILGALTEEELRKLENELEELD; target or system = Tpm1 K15N; test = CD thermal unfolding; setting = 30 °C; measurement = Kd; value = 3.77 ± 0.01 µM
Substance = AIVV; target or system = PC-12; test = Aβ42-induced toxicity, inhibitor, MTT; test system = peptide; setting = added: Aβ42; measurement = IC50; value = 14 ± 1 µM
Substance = coproporphyrin I; target or system = OATP1B1; test system = monkey; setting = dose not given, added: rifampicin; scale = reference: without rifampicin; measurement = AUC fold increase; value = 2.7 fold
Substance = GVVIA; target or system = PC-12, differentiated; test = MTT; test system = peptide; setting = 10-fold excess over Aβ42, added: Aβ42 5 µM; scale = reference: untreated; measurement = viability; value = 83 ± 3%
Substance = indirubin-3'-monoxime; target or system = HUVEC; test = ATP level, CellTiter-Glo; measurement = IC50; value = 8.7 µM
Substance = AVIA; target or system = PC-12; test = Aβ42-induced toxicity, inhibitor, MTT; test system = peptide; setting = added: Aβ42; measurement = IC50; value = 53 ± 10 µM
Substance = HIF1A CTAD C800V (Homo sapiens); target or system = CBP TAZ1 domain (Mus musculus, UniProt P45481); test = fluorescence anisotropy; measurement = Kd; value = 0.0074 µM

Excerpt of the above:
Substance = VGGVVIA; target or system = PC-12, differentiated; test = MTT; test system = peptide; setting = 10-fold excess over Aβ42, added: Aβ42 5 µM; scale = reference: untreated; measurement = viability; value = 80 ± 3%
Substance = B1 (CCL1); target or system = CCR8 S289A mutant; test = IP accumulation, agonist; measurement = EC50; value = 0.018 µM
